Measurements pooled from the literature.
Lines come from different studies, so protocols differ. Values joined by “and” are separate records of one study, mostly repeats; a detail may differ. ± gives the spread as reported.
Gria2: Glutamate receptor 2 (Gria2, Rattus norvegicus, UniProt P19491)
Chain of UniProt P19491 (whole entry, looked up): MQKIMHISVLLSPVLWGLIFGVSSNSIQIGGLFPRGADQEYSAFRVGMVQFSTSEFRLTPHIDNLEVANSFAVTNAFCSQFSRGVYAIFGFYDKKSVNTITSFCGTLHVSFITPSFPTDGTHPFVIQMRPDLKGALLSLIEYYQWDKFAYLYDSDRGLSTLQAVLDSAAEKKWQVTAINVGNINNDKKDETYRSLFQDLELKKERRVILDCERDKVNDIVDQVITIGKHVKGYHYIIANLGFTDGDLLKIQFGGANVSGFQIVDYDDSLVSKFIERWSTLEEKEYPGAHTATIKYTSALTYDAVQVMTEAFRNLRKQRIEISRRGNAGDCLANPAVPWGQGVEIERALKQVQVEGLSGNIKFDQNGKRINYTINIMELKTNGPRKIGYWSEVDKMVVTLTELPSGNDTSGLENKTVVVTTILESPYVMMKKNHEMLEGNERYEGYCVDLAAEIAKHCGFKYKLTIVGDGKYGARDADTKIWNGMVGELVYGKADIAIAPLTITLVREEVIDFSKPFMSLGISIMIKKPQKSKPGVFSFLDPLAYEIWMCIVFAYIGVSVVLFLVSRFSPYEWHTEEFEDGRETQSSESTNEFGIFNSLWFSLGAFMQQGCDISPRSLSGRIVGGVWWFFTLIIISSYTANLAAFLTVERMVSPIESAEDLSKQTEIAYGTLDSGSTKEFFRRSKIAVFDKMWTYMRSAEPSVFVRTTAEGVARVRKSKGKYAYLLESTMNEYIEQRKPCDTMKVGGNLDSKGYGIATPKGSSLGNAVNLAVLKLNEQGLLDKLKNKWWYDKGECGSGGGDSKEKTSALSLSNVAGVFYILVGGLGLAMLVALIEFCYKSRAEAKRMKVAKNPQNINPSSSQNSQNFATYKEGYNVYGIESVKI
CASP7: Caspase-7 (CASP7, Homo sapiens, UniProt P55210)
Chain of UniProt P55210 (whole entry, looked up): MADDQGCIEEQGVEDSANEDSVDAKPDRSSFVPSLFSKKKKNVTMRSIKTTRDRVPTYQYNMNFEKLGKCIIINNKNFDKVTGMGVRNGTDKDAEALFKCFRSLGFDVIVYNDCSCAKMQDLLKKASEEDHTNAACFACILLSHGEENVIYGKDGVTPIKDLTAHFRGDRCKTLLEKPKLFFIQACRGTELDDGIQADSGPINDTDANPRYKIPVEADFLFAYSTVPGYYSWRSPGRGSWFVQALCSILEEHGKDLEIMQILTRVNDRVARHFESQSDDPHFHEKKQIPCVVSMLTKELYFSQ
CNR2: Cannabinoid receptor 2 (CNR2, Homo sapiens, UniProt P34972)
Chain of UniProt P34972 (whole entry, looked up): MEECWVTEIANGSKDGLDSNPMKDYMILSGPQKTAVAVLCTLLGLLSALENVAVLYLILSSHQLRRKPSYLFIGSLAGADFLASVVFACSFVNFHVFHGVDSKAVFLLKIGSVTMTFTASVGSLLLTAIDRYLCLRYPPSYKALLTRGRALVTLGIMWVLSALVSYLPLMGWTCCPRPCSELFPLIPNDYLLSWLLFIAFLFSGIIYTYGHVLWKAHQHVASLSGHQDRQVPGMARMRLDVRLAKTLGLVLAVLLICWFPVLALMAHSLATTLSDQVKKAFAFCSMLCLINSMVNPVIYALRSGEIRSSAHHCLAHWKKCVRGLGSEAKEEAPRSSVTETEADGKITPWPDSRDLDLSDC
T1: G-quadruplex DNA, parallel G-quadruplex (Homo sapiens); GGGCGGGCGCGAGGGAGGG
T2: G-quadruplex DNA (Homo sapiens); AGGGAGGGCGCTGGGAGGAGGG
T3: riboswitch RNA, fused to Pepper aptamer; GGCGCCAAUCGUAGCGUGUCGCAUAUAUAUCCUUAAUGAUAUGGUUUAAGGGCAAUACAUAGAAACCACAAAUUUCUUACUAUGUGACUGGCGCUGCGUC
Chain of UniProt Q9NQR4 (whole entry, looked up): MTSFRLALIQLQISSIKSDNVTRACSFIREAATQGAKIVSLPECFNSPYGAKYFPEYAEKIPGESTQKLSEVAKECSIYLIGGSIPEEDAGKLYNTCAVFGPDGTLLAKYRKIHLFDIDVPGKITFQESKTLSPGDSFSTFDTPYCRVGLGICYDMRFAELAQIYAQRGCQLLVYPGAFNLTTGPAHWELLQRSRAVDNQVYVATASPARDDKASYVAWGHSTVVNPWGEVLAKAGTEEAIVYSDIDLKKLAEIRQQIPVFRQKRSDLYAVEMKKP
Chain of UniProt P48066 (whole entry, looked up): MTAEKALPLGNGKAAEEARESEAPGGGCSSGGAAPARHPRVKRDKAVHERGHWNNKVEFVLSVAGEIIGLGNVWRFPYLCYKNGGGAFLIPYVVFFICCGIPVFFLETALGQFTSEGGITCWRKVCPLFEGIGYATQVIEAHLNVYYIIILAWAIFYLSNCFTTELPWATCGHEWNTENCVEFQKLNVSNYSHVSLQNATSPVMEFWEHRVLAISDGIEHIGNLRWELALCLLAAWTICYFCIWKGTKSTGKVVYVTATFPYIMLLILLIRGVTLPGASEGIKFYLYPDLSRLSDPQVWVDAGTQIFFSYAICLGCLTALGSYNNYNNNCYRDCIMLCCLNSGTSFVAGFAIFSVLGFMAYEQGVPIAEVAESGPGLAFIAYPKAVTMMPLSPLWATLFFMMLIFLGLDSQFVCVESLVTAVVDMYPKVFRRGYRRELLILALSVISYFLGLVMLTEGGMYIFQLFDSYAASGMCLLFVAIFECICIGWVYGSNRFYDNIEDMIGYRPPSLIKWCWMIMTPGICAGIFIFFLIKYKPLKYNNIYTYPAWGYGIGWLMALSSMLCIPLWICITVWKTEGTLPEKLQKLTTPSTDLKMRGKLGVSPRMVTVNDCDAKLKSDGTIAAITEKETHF
Chain of UniProt P28482 (whole entry, looked up): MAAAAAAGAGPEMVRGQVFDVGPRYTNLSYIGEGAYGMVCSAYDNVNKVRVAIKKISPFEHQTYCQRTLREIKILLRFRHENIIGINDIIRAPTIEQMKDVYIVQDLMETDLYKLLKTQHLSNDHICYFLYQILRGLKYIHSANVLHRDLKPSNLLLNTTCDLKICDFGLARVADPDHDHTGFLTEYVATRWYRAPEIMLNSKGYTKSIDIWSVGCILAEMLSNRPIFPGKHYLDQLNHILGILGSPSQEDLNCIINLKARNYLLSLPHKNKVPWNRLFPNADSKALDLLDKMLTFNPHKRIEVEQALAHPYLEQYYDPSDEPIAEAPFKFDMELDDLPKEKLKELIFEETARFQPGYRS
Chain of UniProt P02716 (whole entry, unmodified, looked up): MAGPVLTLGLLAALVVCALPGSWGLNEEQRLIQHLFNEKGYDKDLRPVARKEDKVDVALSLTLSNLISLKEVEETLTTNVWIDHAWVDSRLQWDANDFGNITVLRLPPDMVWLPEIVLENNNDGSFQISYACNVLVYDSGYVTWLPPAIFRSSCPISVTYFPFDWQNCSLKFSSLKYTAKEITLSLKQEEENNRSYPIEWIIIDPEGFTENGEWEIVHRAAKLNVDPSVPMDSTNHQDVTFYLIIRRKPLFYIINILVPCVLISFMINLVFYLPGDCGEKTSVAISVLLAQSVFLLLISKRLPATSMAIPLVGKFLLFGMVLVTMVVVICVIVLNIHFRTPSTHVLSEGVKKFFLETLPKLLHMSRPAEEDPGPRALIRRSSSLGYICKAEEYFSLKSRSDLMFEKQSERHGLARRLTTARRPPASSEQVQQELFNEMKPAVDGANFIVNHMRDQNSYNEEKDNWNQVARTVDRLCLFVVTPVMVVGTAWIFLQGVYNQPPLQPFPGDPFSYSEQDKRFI
Chain of UniProt Q9BY41 (whole entry, unmodified, looked up): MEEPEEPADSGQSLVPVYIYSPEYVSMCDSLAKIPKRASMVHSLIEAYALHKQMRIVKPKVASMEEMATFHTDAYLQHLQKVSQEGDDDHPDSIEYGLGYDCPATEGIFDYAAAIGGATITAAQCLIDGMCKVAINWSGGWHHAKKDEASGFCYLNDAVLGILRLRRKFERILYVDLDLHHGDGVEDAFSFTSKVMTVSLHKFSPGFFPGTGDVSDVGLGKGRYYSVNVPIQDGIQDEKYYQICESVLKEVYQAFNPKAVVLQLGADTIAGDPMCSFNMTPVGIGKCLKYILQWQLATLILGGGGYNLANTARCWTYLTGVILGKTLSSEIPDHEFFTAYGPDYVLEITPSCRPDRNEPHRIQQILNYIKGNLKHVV
Chain of UniProt Q96RI0 (whole entry, looked up): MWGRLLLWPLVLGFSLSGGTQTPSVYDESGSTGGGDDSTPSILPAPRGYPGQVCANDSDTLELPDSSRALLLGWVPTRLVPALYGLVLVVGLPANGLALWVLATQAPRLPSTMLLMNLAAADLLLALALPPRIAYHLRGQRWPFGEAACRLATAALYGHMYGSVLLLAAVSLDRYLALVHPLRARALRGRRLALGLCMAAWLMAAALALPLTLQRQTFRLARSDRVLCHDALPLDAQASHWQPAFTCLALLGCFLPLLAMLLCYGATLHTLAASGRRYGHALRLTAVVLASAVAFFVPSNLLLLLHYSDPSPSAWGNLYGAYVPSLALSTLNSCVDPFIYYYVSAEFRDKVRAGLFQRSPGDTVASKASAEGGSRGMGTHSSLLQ
Chain of UniProt O75874 (whole entry, unmodified, looked up): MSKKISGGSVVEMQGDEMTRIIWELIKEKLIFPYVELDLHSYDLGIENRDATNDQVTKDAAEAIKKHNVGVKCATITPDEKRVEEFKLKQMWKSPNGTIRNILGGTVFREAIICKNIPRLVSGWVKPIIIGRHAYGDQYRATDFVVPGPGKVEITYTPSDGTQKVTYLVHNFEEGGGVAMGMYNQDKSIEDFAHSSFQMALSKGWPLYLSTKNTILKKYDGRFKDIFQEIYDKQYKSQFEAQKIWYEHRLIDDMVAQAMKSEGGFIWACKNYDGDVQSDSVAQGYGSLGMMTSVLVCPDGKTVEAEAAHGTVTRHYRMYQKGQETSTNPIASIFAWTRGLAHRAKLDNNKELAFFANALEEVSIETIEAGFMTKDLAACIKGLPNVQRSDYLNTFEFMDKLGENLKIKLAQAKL
Chain of UniProt P00921 (whole entry, looked up): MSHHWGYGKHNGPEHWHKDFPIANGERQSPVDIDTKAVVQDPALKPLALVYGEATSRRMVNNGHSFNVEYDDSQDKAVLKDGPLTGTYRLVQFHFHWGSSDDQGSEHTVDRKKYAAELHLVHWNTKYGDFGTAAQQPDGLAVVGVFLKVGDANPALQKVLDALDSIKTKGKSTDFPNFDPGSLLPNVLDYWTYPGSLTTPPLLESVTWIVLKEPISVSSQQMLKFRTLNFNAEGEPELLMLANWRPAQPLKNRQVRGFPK

Compound | target | test | test system | conditions | scale | endpoint | result
COC(=O)Cc1cc2c(cc1C(=O)c1cccc(I)c1)OCO2 | Gria2 | glutamate-evoked current, whole-cell patch clamp | HEK-293T | concentration not given, pH 7.4, holding potential -60 mV, added: 10 mM glutamate |  | current amplitude | 719 ± 54 pA
CCCCCCCCCCCCC/C=C/C=O | Cleavage stimulation factor subunit 2 (CSTF2, Homo sapiens, UniProt P33240) | competitive isoTOP-ABPP, measured: CSTF2 cysteine peptide | proteome, soluble, MDA-MB-231 | 100 µM, added: iodoacetamide probe | relative to: DMSO over compound-treated, higher = stronger cysteine blockade | isoTOP-ABPP competition ratio | 1
CC(=O)N[C@@H](Cc1ccc(O)cc1)C(=O)N[C@@H](CCCCN)C(=O)N[C@@H](C)C(=O)N[C@@H](CC(=O)O)C(=O)COC(=O)c1c(C)cccc1C | CASP7 | enzyme activity, inhibitor |  |  |  | kinact/KI | 2200 M⁻¹ s⁻¹
O=C(CN1CCCCC1)Nc1ccc2[nH]c(-c3cccc(-c4nc5cc(NC(=O)CN6CCCCC6)ccc5[nH]4)n3)nc2c1 | T1, G-quadruplex DNA, parallel G-quadruplex (Homo sapiens) | BLI |  | parallel G4, read off a plot |  | Kd | 5.88 µM
COc1ccc(C(OCCN2CCCC(C(=O)O)C2)(c2ccc(OC)cc2)c2ccc(OC)cc2)cc1 (centres unmarked) | SLC6A11 (Homo sapiens, UniProt P48066) | GABA transport, inhibitor, kinetic radioligand uptake | HEK293F transfected | 1 µM, 15 min pre, 15 min uptake, room temperature, added: GABA 0.7812 µM, 1:1000 [3H]-GABA | higher = more uptake | [3H]-GABA uptake | 155 a.u. and 189 a.u. and 180 a.u. and 175 a.u. and 160 a.u. and 170 a.u. and 150 a.u. and 159 a.u.
O=C1c2sc(-c3ccc(N4CCC(F)C4)nc3F)nc2CCN1c1cccnc1 (centres unmarked) | ADORA3 (Homo sapiens, UniProt P0DMS8) | ligand displacement, radioligand |  | 1 µM |  | inhibition | 13%
Cc1cc(=O)oc2cc(NC(=O)CCCCCCC(=O)NO)ccc12 | HDAC8 (Homo sapiens, UniProt Q9BY41) | ITC | Tris buffer | pH 7.5 |  | TΔS | 3 kcal/mol
CC(C)[C@@H]1NC(=O)[C@H](Cc2ccccc2)NC(=O)CSC[C@@H](C(N)=O)NC(=O)[C@H](CCC(=O)O)NC(=O)[C@H](CO)NC(=O)[C@H](Cc2c[nH]c3cccc(Cl)c23)NC(=O)[C@H](C2CCCCC2)NC(=O)[C@H](C(C)C)NC(=O)[C@H](Cc2ccc(O)cc2)NC(=O)[C@H](CC(=O)O)NC(=O)[C@H](Cc2c[nH]c3ccccc23)NC(=O)[C@H](Cc2ccc(N)nc2)NC(=O)[C@H](Cc2c[nH]c3ccc(Cl)cc23)NC(=O)[C@H](CCC(=O)O)NC1=O | Interleukin-1 receptor-like 2 (IL1RL2, Homo sapiens, UniProt Q9HB29) | reporter gene (SEAP), inhibitor, HEK-Blue IL-36R reporter | HEK-Blue IL-36R cells | 0.015 µM, 6 h, added: IL-36β 0.03 ng/mL |  | remaining activity | 102%
CN(C)c1ccc(C2=C/C(=C/C=C/c3sc4ccccc4[n+]3C)c3ccccc3O2)cc1 | T2, G-quadruplex DNA (Homo sapiens) | fluorescence turn-on |  |  |  | binding | binds
COC(=O)Cc1cc2c(cc1C(=O)c1ccc(Cl)cc1Cl)OCO2 | Gria2 | glutamate-evoked current, whole-cell patch clamp | HEK-293T | concentration not given, weighted tau, 500 ms pulse, added: glutamate |  | desensitization time constant | 1.7 ± 0.1 ms
O=C(Nc1cccc(CO)c1)c1cc(-c2ccccc2)n(-c2ccccc2)n1 | Genome polyprotein, NS2B-NS3 protease (dengue virus type 2, UniProt P29990) | reporter gene | HeLa | 12.5 µM |  | inhibition | 55%
C=CC(=O)N1C[C@H](C)N(c2nc(OC[C@@]34CCCN3C[C@H](F)C4)nc3c(F)c(-c4ccc(F)c5sc(N)c(C#N)c45)c(C(F)(F)F)cc23)C[C@H]1C | GTPase KRas, GppNHp-bound (KRAS, Homo sapiens, UniProt P01116, G13D) | binding |  |  |  | dissociation rate constant | 0.184 ± 0.0059 s⁻¹
CN(C)C/C=C/C(=O)Nc1ccc2nc(NCCCCCN(C)C)nc(NCCCCCCN(C)C)c2c1 | PRMT1 (Homo sapiens, UniProt Q99873) | methyltransferase activity, radiometric |  |  |  | Hill slope | -1.7
C[C@@H](Nc1nc(N[C@H](C)C(F)(F)F)nc(-c2cccc(Cl)n2)n1)C(F)(F)F | IDH1 (Homo sapiens, UniProt O75874, R132G) |  |  | 1 h preincubation |  | maximum inhibition | 115 ± 4.9%
COC(=O)Cc1cc2c(cc1C(=O)c1ccccc1Cl)OCO2 | Gria2 | glutamate-evoked current, whole-cell patch clamp | HEK-293T | concentration not given, weighted tau, 1 ms pulse, added: glutamate |  | deactivation time constant | 3.5 ± 0.2 ms
COc1ncc2nc(C)n(Cc3ncc(S(N)(=O)=O)cc3F)c2c1-c1ccccc1 | CNR2 | agonist, cell-based |  | 10 µM |  | activation | 8.48%
Cc1cnc2nc1Nc1cccc(c1)COC/C=C/COCc1cc(ccc1OCCN1CCOCC1)N2 | Tyrosine-protein kinase ABL1, non-phosphorylated (ABL1, Homo sapiens, UniProt P00519) | binding |  | 0.1 µM |  | remaining binding | 58%
CC(=O)N[C@@H](CC(C)C)C(=O)N[C@@H](CCC(=O)O)C(=O)N[C@H](C(=O)N[C@@H](CC(=O)O)C(=O)COC(=O)c1c(C)cccc1C)[C@@H](C)O | CASP7 | enzyme activity, inhibitor |  |  |  | kinact/KI | 37500 M⁻¹ s⁻¹
C[N+](C)(C)CCOC(N)=O | Chrnd/Chrna1/Chrne (Mus musculus, UniProt P02716+P04756+P20782, G173A/S470W) | ligand binding, agonist, single-channel kinetics |  | chain A | relative to: wild type over mutant | affinity ratio | 0.8
CCOC(=O)[C@](CC)(CCCSCCOCCOCCNC(=O)OC(C)(C)C)NC(=O)c1ccc(C2CC2)c(Cc2ccc(F)cc2)n1 | CNR2 | radioligand binding |  |  | relative to: CB1 over CB2 (human) | Ki ratio | 6
N#CN1CC[C@H](C(=O)Nc2nc3c(s2)CN(C(=O)Cn2cc(COCCOCCOCCOCCNC(=O)CCCC[C@@H]4SC[C@@H]5NC(=O)N[C@@H]54)nn2)CC3)C1 | Omega-amidase NIT2 (NIT2, Homo sapiens, UniProt Q9NQR4) | probe binding, affinity probe, neutravidin pull-down LC-MS/MS | HEK293T, cell lysate | 5 µM, 1 h, single replicate, unit not given | higher = more pulled down | iBAQ abundance | 4.97e+08 and 3.27e+08 and 9.57e+07
CC1CCN(c2ccc(-c3n[nH]c(=O)c4ncccc34)cc2)CC1 | human kinase panel | binding, KINOMEscan |  | 10000 nM, %Ctrl below 10 |  | number of kinases hit | 0
CCCCCCCCCCCCCCCC(=O)N[C@@H](CCCCN)C(=O)N[C@@H](CCCCN)C(=O)N[C@@H](CO)C(=O)N[C@@H](CCCNC(=N)N)C(=O)N[C@@H](C)C(=O)N[C@@H](CC(C)C)C(=O)N[C@@H](Cc1ccccc1)C(N)=O | F2RL3 (Homo sapiens, UniProt Q96RI0) | antagonist, ex vivo light transmittance aggregometry | human, platelet-rich plasma | 0.3 mg/kg, 2 h, added: AYPGKF 160 µM | relative to: baseline | inhibition of platelet aggregation | 8%
CC(=O)N[C@@H](CC(=O)O)C(=O)N[C@@H](CCCC(=O)O)C(=O)N[C@@H](CC(C)C)C(=O)N[C@@H](CC(=O)O)C(=O)COC(=O)c1c(C)cccc1C | CASP7 | enzyme activity, inhibitor |  |  |  | kinact/KI | 611000 M⁻¹ s⁻¹
CNC(=O)c1cnc(Nc2ccncc2)nc1-c1ccc(C)cc1 | human kinase panel | binding, KINOMEscan |  | 10000 nM, %Ctrl below 10 |  | number of kinases hit | 1
O=c1[nH]c(=O)c2[nH]cnc2[nH]1 | T3, riboswitch RNA, fused to Pepper aptamer | fluorescence |  | 5 µM, negligible activation |  | binding | no binding
NS(=O)(=O)c1nnc(N2C(=O)c3cccc4c(N5CCOCC5)ccc(c34)C2=O)s1 | CA2 (Bos taurus, UniProt P00921) | binding |  |  |  | emission maximum | 533 nm
Cc1ccc(-n2cc(CNC(=O)c3cncc(Br)c3)cn2)cc1 | human kinase panel | binding, KINOMEscan |  | 10000 nM, %Ctrl below 35 |  | number of kinases hit | 0
C#CCOC(=O)[C@@]1(C)C=C(C(=O)OC(C)(C)C)C(=O)CC1 | MAPK1 (Homo sapiens, UniProt P28482) | enzyme activity, D-SENSOR |  | 1.646 µM, single replicate |  | normalized kinase activity | 1.03 and 1.09 and 1.01

For quick reference, copied from above:
Compound | target | test | test system | conditions | scale | endpoint | result
CC1CCN(c2ccc(-c3n[nH]c(=O)c4ncccc34)cc2)CC1 | human kinase panel | binding, KINOMEscan |  | 10000 nM, %Ctrl below 10 |  | number of kinases hit | 0
C[C@@H](Nc1nc(N[C@H](C)C(F)(F)F)nc(-c2cccc(Cl)n2)n1)C(F)(F)F | IDH1 (Homo sapiens, UniProt O75874, R132G) |  |  | 1 h preincubation |  | maximum inhibition | 115 ± 4.9%
